# Results pooled from the literature.
# Numbered parts are unrelated; each lists some results of a single study.

# Sample 1
# Target: Hepatocyte nuclear factor 3-alpha (Foxa1, Mus musculus, UniProt P35582, residues 1-468, full length assumed)
# Method: EMSA with sequencing
# Form: double-stranded DNA, one strand shown
# Sample: in vitro
# Concentration: 10 and 20 nM
# Notes: whole designed probe, mean of two concentrations, ends assumed
# Relative to: negative control set to 0
# Direction: higher = stronger binding
# Constant ends, left off below: GTGAGCGGTGCCCATTGATGGGGAAC … TTTCACTGGGATCGTGGGGAC
# Construct (chain): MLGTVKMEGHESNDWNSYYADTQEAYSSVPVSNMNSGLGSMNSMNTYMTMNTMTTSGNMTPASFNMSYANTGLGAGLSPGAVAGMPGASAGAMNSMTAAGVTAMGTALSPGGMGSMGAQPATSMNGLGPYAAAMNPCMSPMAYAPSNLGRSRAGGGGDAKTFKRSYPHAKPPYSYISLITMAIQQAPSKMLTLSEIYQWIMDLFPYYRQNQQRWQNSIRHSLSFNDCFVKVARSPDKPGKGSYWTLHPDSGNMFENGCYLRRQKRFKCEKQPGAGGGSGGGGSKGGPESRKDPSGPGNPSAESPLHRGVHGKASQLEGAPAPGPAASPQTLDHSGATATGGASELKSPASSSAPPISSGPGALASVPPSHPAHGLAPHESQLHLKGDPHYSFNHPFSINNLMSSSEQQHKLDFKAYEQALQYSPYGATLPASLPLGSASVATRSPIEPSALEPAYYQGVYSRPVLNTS
Sequence,normalised bound fraction [ratio]
GTAAAAACTTATTACTAATCATTGTTTCTCAATTTTGACTTAAGGGCTATTTGTTCAGAATAAAATATATGGAACTAAGGCCAAGAATTTGTATGTTTACCTAATGTGACTTGTGTTTGCCAATGTTTGAGAACCTCAGTGTTTGTCAAGAGGCCTAGGAATTCATAAACATAACAAAAGTAACTGGCTTTAC,0.405
AGGACATAAGCCAGCCCAGATAACAAGCTAAGAAATTTGTTTAGGCAGAAGGGGGAGCTAGAGCAAATCAGTTCACATGCTCTCTCTGTCTCCTGTTTACACTGTAGTATTACAGGTGTTAGACGGTAGCAAGTCCTAGAGAAGTGTGTTGTGTAAGTCACTGTCATTCAACATTGTAAACAGCTAGGTAAAA,0.27
AGGTGAATTGGCTGCTTCCATCCTGGCTTGGAACTTCAGACATAGAAGCCTTGGGACTTTCTCAGGCTGACTCATGCACTTTCTCCAGATGCTTGTTTGCTGAATCTCTGTGGATCACGTGACCTTAGCCAGGGATGTTGGTGAAACTGTGTGTTGGTCTAGGTACCTAGCCCATGCTAGGTGCTCATCGAAT,0.046
TAAAATGAAAAATAGATAACATAAAAAGGAAATAATTAAAACAAAGCCTAAGGTGATAAGAAGAAACTAAGTAAATAAGTAATATAAGAACAAAGTAAACATGAGATAAAAGAAAAGTCTTATGAAAGAGTAAGAAAAGATAAATCAACTAAGAACAATTAACTGTGAGACTGTAAAACAAAAGGACTAAAAG,0.527
CCTTGTTATTTGCAGGTATCCAAATGTCTGCATGTGGGAGCATTCCTTGTGGATTAGGGTGTTAGTGTCTAGGAGTCTCCTCTTTTATGAAATGCAATCTTTCTTTGAGCACAATTGCAACATCAGCTGTGAAAATTACCTAAATGTTTCCCAAGGATAAGTGGCTTACGTCAGAGCCCTGAGGCTACAGGAT,-0.0493

# Sample 2
# Organism: Saccharomyces cerevisiae
# Effect on: binding
# Method: yeast competitive growth sequencing
# Form: peptide
# Strain: cyclin D1-Cln2 strain
# Sample: peptide tiling library
# Notes: pooled screen
# Direction: direction not given
Molecule,enrichment score
HPESPPRKRLKSKGSD,4.25
RTEALEQGGLPKKLIF,0.801
AKRSLGFLPQPVPL,-1.29
SPPRGRRLFPPGPAGF,0.0631
VKRLNFRSEEME,-2.01
AEHPKPSACRNLFGPV,0.675
EHCRVLFLDHVMYTIH,-0.784
GTPKRCLDLSNLSSGE,-0.374
NEGVSNAVRRSLYIRD,-1.22
QNPCGSKACRRLFGPV,0.268
EPRNLLSLFEDTLDPT,0.554
KVRRNLFNQELLSP,-0.911
SNFFDVIKQLFSDEKN,-2.91
YLYLLLTQSLWCRV,-1.81
RQVRRDLFAF,-2.04
QYQVVDDIVSKLVFDF,0.555

# Sample 3
# Target: Histone acetyltransferase KAT6A, winged helix 2, GST fusion (KAT6A, Homo sapiens, UniProt Q92794, residues 85-181)
# Method: protein binding microarray
# Form: double-stranded DNA, one strand shown
# Sample: in vitro
# Concentration: not given
# Notes: 8-mer, flanks averaged, mean of 2 arrays, mostly near background
# Relative to: not given
# Direction: higher = stronger binding
# Residues (chain): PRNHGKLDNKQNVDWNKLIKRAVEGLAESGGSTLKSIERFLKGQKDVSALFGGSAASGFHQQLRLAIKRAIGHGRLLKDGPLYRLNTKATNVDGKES
Sequence,E-score
CAAAGCCG,0.103
GCCGCTAA,0.105
CACCTAAC,-0.0506
AAACTAGA,0.0135
CAAGAGCG,0.0257
GCAATGGA,-0.111
AGCTCTCC,0.0209
GCCCCTTA,0.0147
CCCACCCA,-0.12
CGGCGCAC,0.117
CACACCCA,-0.021
AAGTGGGT,0.0472
CTTTATTC,-0.0199
ATGAATAA,-0.0979
ATATCTGG,-0.124
CTCAGTCC,-0.0777
CCAAAAAG,0.134
CATAGACA,-0.0362
TCCTCCCA,0.0455
GTGCGCGA,0.0158
GATTAGCA,0.0739
ACTATTAA,0.0271
ACCTCATA,0.0188
TCGCGACA,0.082

# Sample 4
# Target: Sal-like protein 4, full length isoform A (SALL4, Homo sapiens, UniProt Q9UJQ4, residues 1-1053)
# Chain of UniProt Q9UJQ4 (whole entry, looked up): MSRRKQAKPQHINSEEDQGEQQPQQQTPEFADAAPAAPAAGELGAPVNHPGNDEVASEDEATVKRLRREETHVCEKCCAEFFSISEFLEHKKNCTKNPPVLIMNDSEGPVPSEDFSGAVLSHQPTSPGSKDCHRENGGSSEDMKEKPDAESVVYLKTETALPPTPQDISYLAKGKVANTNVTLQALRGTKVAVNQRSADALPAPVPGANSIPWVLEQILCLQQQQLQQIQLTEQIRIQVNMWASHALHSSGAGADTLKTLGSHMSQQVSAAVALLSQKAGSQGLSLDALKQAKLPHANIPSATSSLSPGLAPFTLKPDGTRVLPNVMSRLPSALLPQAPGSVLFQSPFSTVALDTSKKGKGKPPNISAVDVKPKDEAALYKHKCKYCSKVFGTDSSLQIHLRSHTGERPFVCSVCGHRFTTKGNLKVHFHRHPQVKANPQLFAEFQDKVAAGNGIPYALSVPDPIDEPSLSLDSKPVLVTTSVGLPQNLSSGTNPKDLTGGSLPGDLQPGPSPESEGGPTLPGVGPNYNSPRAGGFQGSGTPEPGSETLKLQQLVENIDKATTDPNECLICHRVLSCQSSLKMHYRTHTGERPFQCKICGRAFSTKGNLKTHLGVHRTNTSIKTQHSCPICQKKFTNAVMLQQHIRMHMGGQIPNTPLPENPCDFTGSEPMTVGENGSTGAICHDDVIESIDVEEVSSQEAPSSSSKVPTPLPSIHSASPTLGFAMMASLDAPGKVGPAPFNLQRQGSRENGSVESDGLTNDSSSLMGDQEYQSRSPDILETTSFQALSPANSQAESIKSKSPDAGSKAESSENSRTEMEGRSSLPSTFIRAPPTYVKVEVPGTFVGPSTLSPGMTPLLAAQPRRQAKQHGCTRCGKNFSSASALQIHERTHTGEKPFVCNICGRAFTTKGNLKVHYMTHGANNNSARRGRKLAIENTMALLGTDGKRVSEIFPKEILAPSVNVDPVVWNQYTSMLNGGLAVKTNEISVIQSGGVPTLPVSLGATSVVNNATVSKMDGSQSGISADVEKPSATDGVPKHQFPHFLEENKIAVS
# Method: universal PBM
# Form: double-stranded DNA, one strand shown
# Sample: in vitro
# Concentration: 600 nM
# Notes: 8-mer, flanks averaged, mean of replicates
# Direction: higher = stronger binding
Sequence,E-score
CCAAGGGG,-0.148
ACACAAAT,0.234
CGCTTGAA,0.107
CTGCTAAA,0.0321
AGTAGAGG,-0.196
CCGGTACC,-0.296
GCGCGGCC,-0.367
CACCATCG,-0.287
CAAGGAGA,-0.022
CCGCCAAC,-0.311
ACCCCCAG,-0.195
AAGAATTG,0.153
TAGGAAGA,0.0261
ATGACCCA,0.106
AAATAATC,0.354
AGGCTCTC,-0.172
CTTTAGTC,0.0398
CCCGGCGC,-0.369
GCAATTTA,0.23
AGACACGA,0.0225

# Sample 5
# Target: Prothrombin, mature alpha-thrombin (F2, Homo sapiens, UniProt P00734)
# Method: aptamer microarray, sandwich
# Form: DNA with 2'F-ANA
# Sample: in vitro
# Concentration: 200 nM
# Notes: whole 15-mer aptamer, many near background
# Added: Cy3 exosite-II aptamer, 400 nM
# Direction: higher = stronger binding
# Sequence: GGTTGGTGTGGTTGG
Modification,mean fluorescence intensity
2'F-ANA at 2 3 4 5 6 8 9 13 14 15,50.3 a.u.
2'F-ANA at 1 11,170 a.u.
2'F-ANA at 1 2 4 5 6 7 8 9 10 12 13 14,88.3 a.u.
2'F-ANA at 6 9 12 13,644 a.u.
2'F-ANA at 1 2 3 5 6 8 14,46.6 a.u.
2'F-ANA at 1 2 9 10 13 14 15,46 a.u.
2'F-ANA at 4 5 6 7 8 12 14 15,49.7 a.u.
2'F-ANA at 1 3 5 8 9 11 13 14,43.1 a.u.
2'F-ANA at 3 6 7 9 10 11 13 15,365 a.u.
2'F-ANA at 2 5 14,64.8 a.u.
2'F-ANA at 2 3 5 8 9 10 12 13 15,60.2 a.u.
2'F-ANA at 1 5 6 7 8 11 12,107 a.u.
2'F-ANA at 2 3 4 5 6 7 9 11 13 15,65.7 a.u.
2'F-ANA at 3 6 7 12 13 14 15,580 a.u.
2'F-ANA at 1 3 4 7 8 12 15,562 a.u.
2'F-ANA at 2 3 5 6 8 9 11 14,52.3 a.u.
2'F-ANA at 1 2 3 5 6 7 8 11 13,54.5 a.u.
